Assay results collected from several papers.
Each numbered part is a random draw from the data of one study; scales do not carry over between parts. “And” joins repeats or separate records; there may be more than shown.
Sequence of UniProt O14936 (whole entry, looked up): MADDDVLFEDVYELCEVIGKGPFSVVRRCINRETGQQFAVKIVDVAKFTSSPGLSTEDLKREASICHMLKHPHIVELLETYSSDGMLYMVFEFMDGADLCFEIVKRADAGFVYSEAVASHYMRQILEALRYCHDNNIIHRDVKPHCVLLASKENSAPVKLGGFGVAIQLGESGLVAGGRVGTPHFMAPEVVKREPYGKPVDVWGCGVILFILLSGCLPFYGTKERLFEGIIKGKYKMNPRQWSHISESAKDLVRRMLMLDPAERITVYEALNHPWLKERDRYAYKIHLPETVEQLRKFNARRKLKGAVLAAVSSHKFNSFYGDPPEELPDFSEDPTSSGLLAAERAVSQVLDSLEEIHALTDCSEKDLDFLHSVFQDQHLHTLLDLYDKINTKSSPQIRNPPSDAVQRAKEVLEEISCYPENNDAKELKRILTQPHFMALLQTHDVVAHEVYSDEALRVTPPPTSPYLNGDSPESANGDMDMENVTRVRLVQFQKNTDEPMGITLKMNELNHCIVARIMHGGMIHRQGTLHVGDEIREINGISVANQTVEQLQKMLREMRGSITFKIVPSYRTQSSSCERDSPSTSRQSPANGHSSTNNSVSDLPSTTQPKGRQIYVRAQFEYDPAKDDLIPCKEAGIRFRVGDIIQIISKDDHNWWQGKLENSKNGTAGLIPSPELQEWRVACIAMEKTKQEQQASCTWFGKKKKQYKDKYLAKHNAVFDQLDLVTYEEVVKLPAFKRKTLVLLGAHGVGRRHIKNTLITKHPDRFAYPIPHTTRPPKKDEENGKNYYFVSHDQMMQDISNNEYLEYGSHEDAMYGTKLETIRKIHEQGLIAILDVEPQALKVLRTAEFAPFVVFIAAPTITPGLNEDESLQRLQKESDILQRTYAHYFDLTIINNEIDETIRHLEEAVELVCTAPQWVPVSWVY
Sequence of UniProt P07550 (whole entry, looked up): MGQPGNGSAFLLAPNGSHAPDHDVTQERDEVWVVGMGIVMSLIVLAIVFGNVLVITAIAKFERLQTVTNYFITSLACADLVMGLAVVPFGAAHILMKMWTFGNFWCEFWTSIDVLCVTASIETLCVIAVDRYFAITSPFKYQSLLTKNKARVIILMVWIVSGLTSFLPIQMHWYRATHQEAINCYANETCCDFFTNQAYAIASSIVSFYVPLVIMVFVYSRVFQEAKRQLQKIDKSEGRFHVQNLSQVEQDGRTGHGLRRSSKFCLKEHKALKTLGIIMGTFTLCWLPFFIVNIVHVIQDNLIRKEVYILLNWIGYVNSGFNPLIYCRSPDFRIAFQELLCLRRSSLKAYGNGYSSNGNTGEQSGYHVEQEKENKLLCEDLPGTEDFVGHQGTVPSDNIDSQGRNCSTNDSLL
Sequence of UniProt P25100 (whole entry, looked up): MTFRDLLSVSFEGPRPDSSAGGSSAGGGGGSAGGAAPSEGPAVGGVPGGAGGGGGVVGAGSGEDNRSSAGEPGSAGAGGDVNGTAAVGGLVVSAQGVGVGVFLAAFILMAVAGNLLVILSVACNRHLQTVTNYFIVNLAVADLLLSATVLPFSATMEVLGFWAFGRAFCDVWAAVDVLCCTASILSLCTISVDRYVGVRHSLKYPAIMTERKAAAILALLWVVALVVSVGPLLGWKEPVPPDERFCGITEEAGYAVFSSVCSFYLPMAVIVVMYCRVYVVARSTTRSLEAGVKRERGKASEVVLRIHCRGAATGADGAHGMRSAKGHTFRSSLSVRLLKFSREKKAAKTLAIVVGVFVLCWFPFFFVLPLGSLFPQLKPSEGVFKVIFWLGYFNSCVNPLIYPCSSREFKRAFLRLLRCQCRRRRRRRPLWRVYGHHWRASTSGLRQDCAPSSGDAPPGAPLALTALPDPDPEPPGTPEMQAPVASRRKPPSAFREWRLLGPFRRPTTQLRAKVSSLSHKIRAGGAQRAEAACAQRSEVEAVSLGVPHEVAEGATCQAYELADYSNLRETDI

Study 1
Organism: Sarcocystis neurona
Effect on: parasite growth
Tested at: concentration not given
Notes: secondary screen
Measurement: inhibition
CN(C)CC[C@@H](c1ccc(Br)cc1)c1ccccn1.O=C(O)/C=C\C(=O)O (single isomer, unassigned): -3%
CN1CCC(=C2c3ccccc3CCc3sccc32)CC1.O=C(O)/C=C\C(=O)O: -24.8%
Cl.Cn1c(NCCN(CCO)CCCc2ccc([N+](=O)[O-])cc2)cc(=O)n(C)c1=O: -32.7%
CC(Cc1ccccc1)(NC(=O)CN)c1ccccc1.Cl (stereo not drawn): 0.6%
COc1ccc(C(=O)NCc2ccc(OCCN(C)C)cc2)cc1OC.Cl: -21.7%
CC1=C(C(=O)O)N2C(=O)[C@@H](NC(=O)[C@H](N)c3ccccc3)[C@H]2SC1.O: -16.1%
Cl.O.O=C1N(c2ccccc2)c2ccccc2C1(Cc1ccncc1)Cc1ccncc1: -23.4%
Cl.c1ccc2c(c1)CCCC2C1=NCCN1 (stereo not drawn): -24.2%
Cc1sc(N)c(C(=O)c2cccc(C(F)(F)F)c2)c1C: -15.9%

Study 2
Structure (SMILES): CC(C)(C(=O)O)[C@H](NC(=O)Cc1cccc(I)c1)c1ccc2oc(=O)[nH]c2c1
Method: Incucyte 3D growth
Tested at: 30 µM
Direction: higher = more growth
Measurement: spheroid area
MEL-JUSO; 378.52 h: 3.94e+07 a.u. and 4.18e+07 a.u. and 3.88e+07 a.u. and 5.84e+07 a.u. and 4.93e+07 a.u. and 3.45e+07 a.u.
PC-9; 222 h: 1.85e+09 a.u. and 1.79e+09 a.u. and 1.77e+09 a.u. and 1.83e+09 a.u.
A375; 144 h: 1.05e+08 a.u. and 8.66e+07 a.u. and 8.22e+07 a.u. and 7.67e+07 a.u. and 9.31e+07 a.u. and 8.54e+07 a.u.
PC-9; 24 h: 2.9e+08 a.u. and 2.98e+08 a.u. and 2.97e+08 a.u. and 3.23e+08 a.u. and 3.05e+08 a.u. and 3.01e+08 a.u.
KP-4; 264 h: 8.64e+07 a.u. and 2.57e+07 a.u. and 9.72e+07 a.u. and 4.48e+07 a.u. and 6.23e+07 a.u. and 5.97e+07 a.u.

Study 3
Target: Ribosomal protein S6 kinase alpha-1 (RPS6KA1, Homo sapiens, UniProt Q15418)
Sequence of UniProt Q15418 (whole entry, looked up): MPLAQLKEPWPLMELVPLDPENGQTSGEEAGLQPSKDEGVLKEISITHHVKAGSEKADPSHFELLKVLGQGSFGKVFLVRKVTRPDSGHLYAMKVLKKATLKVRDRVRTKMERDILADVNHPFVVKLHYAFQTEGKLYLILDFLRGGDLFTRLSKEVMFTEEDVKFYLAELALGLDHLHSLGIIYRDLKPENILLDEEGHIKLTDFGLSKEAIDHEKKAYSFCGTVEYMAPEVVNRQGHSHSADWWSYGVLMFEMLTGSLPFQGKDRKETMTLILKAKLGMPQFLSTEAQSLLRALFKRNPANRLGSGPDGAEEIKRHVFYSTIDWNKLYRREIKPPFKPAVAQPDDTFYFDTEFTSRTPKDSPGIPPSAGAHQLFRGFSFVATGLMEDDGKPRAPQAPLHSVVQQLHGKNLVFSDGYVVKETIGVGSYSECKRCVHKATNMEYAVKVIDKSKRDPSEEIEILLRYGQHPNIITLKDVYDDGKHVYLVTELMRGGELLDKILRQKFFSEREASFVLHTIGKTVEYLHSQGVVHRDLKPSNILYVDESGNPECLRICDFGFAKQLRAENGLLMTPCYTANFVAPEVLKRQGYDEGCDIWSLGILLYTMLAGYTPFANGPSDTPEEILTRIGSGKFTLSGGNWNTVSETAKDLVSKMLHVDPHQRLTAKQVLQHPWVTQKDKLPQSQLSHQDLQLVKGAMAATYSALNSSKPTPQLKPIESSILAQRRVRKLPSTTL
Effect on: enzyme activity
Mode: inhibitor
Tested at: 0.5 µM
Relative to: control
Measurement: remaining activity
CC(=O)c1ccc(N2CCOCC2)cc1O: 92.4%
CCc1[nH]c(-c2ccc(OC)cc2)nc1-c1ccncc1: 106%
Fc1ccc(-c2nc3n(c2-c2ccncc2)CCS3)cc1: 100%
CC(C)(C)n1nc(Cc2cccc3ccccc23)c2c(N)ncnc21: 87.8%
CSc1nc(-c2ccnc(N[C@@H](C)c3ccccc3)c2)c(-c2ccc(F)cc2)[nH]1 (racemic): 99.4%
N#CC(=C(N)Sc1ccc(N)cc1)c1ccccc1C(F)(F)F: 88.7%
CC#CC(=O)Nc1cc2c(Nc3ccc(F)c(Cl)c3)ncnc2cn1: 95.1%
Cc1cc(Nc2nc(-c3ccccc3)nc3ccccc23)n[nH]1: 58%
CCCC(=O)Oc1ccc2[nH]c(C(=O)c3cc4ccccc4[nH]3)cc2c1: 91.3%
Cc1ccc(NC2=CC(=O)c3sc(C)nc3C2=O)cc1: 102%
COc1ccc(S(=O)(=O)N(CCO)c2ccccc2CN(C)CC=Cc2ccc(Cl)cc2)cc1: 108%
CC[n+]1c(/C=C/N(C)c2ccccc2)n(-c2ccccc2)c2ccc(-c3nc4ccccc4s3)cc21: 104%
NC(=O)c1ccc(N(C(N)=O)c2c(F)cccc2F)nc1-c1ccc(F)cc1F: 109%
COc1cc(Nc2c(C#N)cnc3cc(OCCCN4CCN(C)CC4)c(OC)cc23)c(Cl)cc1Cl: 80.4%
Nc1nccc(-c2c(-c3ccc(F)cc3)ncn2C2CCNCC2)n1: 96.7%
Nc1ncnc2c1cnn2-c1ccccc1: 79.5%
Oc1ccc(Nc2nc(-c3ccc(Cl)cc3)cs2)cc1: 97.7%
O=C1NC(=O)C(c2c[nH]c3ccccc23)=C1c1c[nH]c2ccccc12: 57.6%
O=C1Cc2c([nH]c3ccc([N+](=O)[O-])cc23)-c2ccccc2N1: 89.7%
Cc1cncc2cccc(S(=O)(=O)N3CCCN(C(=O)CN)C[C@@H]3C)c12: 90.4%
O=S(=O)(NCCNC/C=C/c1ccc(Br)cc1)c1cccc2cnccc12: 68.4%

Study 4
Compound: COc1ccc(-c2c(Nc3ccccn3)[nH]c3c(C4=CCCCC4)c(-c4ccccc4)nn3c2=O)cc1
Species: cancer patients
Medium: plasma
Route: oral
Notes: single dose
Measurement: plasma concentration, mean
150 mg, 6 h post-dose: 1310 ng/mL
400 mg, 8 h post-dose: 1160 ng/mL
100 mg, 8 h post-dose: 1000 ng/mL
400 mg, 4 h post-dose: 1360 ng/mL
100 mg, 24 h post-dose: 715 ng/mL
50 mg, 0.5 h post-dose: 91.5 ng/mL

Single results of other studies
Cc1cc2c(-c3ccco3)cnc(N[C@H]3CCN(C)C[C@@H]3C(=O)NC3CCCCC3)c2[nH]c1=O — inhibition (Beta-2 adrenergic receptor (ADRB2, Homo sapiens, UniProt P07550); ligand displacement; 10 µM): 4.04%
C[C@H](c1cccc(C#N)c1)n1cc(Cl)cc(C(N)=O)c1=N — Ki (Alpha-1D adrenergic receptor (ADRA1D, Homo sapiens, UniProt P25100); binder, radioligand binding): 10.7 nM
Cn1cncc1[C@@](O)(COc1ccc(C#N)cc1-c1ccc(OC(F)(F)F)cc1)c1ccc(C#N)cc1 — normal cells (HEK293T; high-content imaging; 10 µM, 0 h): 93.4% and 85.1%
O=C(O)[C@H]1[C@H](Cn2nnc3ccccc3c2=O)CC[C@@H]1C(=O)c1ccc(OCCC2CCOCC2)cc1 — remaining binding (Peripheral plasma membrane protein CASK (CASK, Homo sapiens, UniProt O14936); cell-free assay, competition with immobilised ligand; 1 µM): 100%

Some of these lines once more (study 2):
A375; 144 h: 1.05e+08 a.u. and 8.66e+07 a.u. and 8.22e+07 a.u. and 7.67e+07 a.u. and 9.31e+07 a.u. and 8.54e+07 a.u.
PC-9; 24 h: 2.9e+08 a.u. and 2.98e+08 a.u. and 2.97e+08 a.u. and 3.23e+08 a.u. and 3.05e+08 a.u. and 3.01e+08 a.u.
KP-4; 264 h: 8.64e+07 a.u. and 2.57e+07 a.u. and 9.72e+07 a.u. and 4.48e+07 a.u. and 6.23e+07 a.u. and 5.97e+07 a.u.
PC-9; 222 h: 1.85e+09 a.u. and 1.79e+09 a.u. and 1.77e+09 a.u. and 1.83e+09 a.u.
